Experimental data collected from several papers.
± marks the error that the study gave.

`COc1cc2c(cc1O)[C@]1(O)C(=O)c3c(O)cc4c(c3O[C@@H]1CO2)C=CC(C)(C)O4` has a viability of 83.3% (SW480; cell growth or viability, MTT; 25 µg/mL).
`CC(=O)N[C@H](C(=O)N[C@H](C(=O)N[C@@H](CCCNC(=N)N)C(=O)N1Cc2ccccc2C[C@H]1C(=O)N[C@@H](Cc1ccccc1)C(N)=O)C1CCCCC1)C(C)C` has a cytokine level of 2.7 ± 1.2 pg/mL (human PBMC; Bio-Plex multiplex, refers to: FGF; 500 µg/mL, 24 h).
For `CCN(Cc1cccc(S(=O)(=O)O)c1)c1ccc(C(=C2C=CC(=[N+](CC)Cc3cccc(S(=O)(=O)[O-])c3)C=C2)c2ccccc2)cc1`, the selectivity index was 100 fold (MT2; baseline: median CC50 over median IC50).
For `CCC(=O)N(C)c1ccc(Cl)c(Cl)c1`, “cells with one aberration” read 0% (CHO-WBL; 0.13 mg/mL, 3 h, without S9 activation).
`CC(C)(C)NC(=O)[C@@H]1C[C@@H]2CCCC[C@@H]2CN1C[C@@H](OC(=O)CCC(=O)OC[C@H](O)[C@H]1OC(=O)C(O)=C1O)[C@H](Cc1ccccc1)NC(=O)[C@H](CC(N)=O)NC(=O)c1ccc2ccccc2n1` gave an efflux ratio of 1.62 (Caco-2 monolayers; 25 µM, 3 h; baseline: Papp B-A over Papp A-B).
For `O=C(O)C1OC(Oc2c(-c3ccccc3O)oc3ccccc3c2=O)C(O)C(O)C1O` (stereo not shown), “intracellular glucuronide concentration” read 8.95 ± 1.09 µM (HeLa-UGT1A9 cells; refers to: 3-O-glucuronide; 0.3125 µM aglycone loading, end of excretion).
`CCCCn1cc(C(=O)O)c(=O)c2cc(F)c(N)c([N+](=O)[O-])c21` has an IC50 of 670 µM (SW480; cell growth or viability, SRB).
`CCC1=C(CC)C2=[N+]3C1=Cc1c(CC)c(CC)c4[n]1[Ir-3]31([n+]3ccccc3)([n+]3ccccc3)[n]3c(c(CC)c(CC)c3=CC3=[N+]1C(=C4)C(CC)=C3CC)=C2.[Cl-]` has a cellular uptake of 305 ± 57.2 µg iridium/g protein (NCI-H460; ICP-MS; 1 µM, 2 h).
For `COc1cccc2c1C(=O)c1c(O)c3c(c(O)c1C2=O)CC(O)(C(=O)CO)CC3OC1CC(NC(=O)C[C@H](N)C(=O)O)C(O)C(C)O1` (stereo partly shown), the cellular uptake was 0.48 ± 0.019 µg/mL (HepG2 (LAT1-positive); HPLC; 10 µg/mL, 2 h, serum-free medium).
Under “apparent permeability ratio”, `CCC(C)C(N)C(=O)OC(C)OC(=O)C1=CC(N=C(N)N)C(NC(C)=O)C(C(O)C(O)CO)O1` (mixture of isomers) is recorded as greater than 2 fold (Caco-2 monolayer; apical to basolateral; baseline: zanamivir).
`CC(C)=CCc1c2c(c(O)c3c(=O)c(-c4ccc(O)cc4)coc13)CC(C(C)(C)O)O2` (stereo not shown) has a viability of 9.03% (SW480; cell growth or viability, MTT; 25 µg/mL).
For `O=c1[nH]cc(C(c2cccc(Cl)c2)c2c[nH]c(=O)[nH]c2=O)c(=O)[nH]1`, cytotoxicity read “not toxic” (Mo7e; 1 µg/mL).
`O=C(O)C1OC(Oc2ccc3oc(-c4ccccc4)cc(=O)c3c2)C(O)C(O)C1O` (stereo not shown): “intracellular glucuronide concentration” 72.7 ± 4.19 µM (HeLa-UGT1A9 cells; 15 µM aglycone loading, end of excretion).
With `O=C(CCC(=O)NCCS(=O)(=O)O)NCCNC(=O)[C@@H](Cc1ccccc1)NC(=O)[C@@H](Cc1ccccc1)NC(=O)CCNc1ccc([N+](=O)[O-])c2nonc12` the intracellular concentration was 0.6 mM (HeLa; 200 µM, 24 h, after one PBS wash).
`O=C(O)C1OC(Oc2c(-c3ccccc3)oc3cc(O)ccc3c2=O)C(O)C(O)C1O` (stereo not shown) — result for “intracellular glucuronide concentration”: 1.93 ± 0.24 µM (HeLa-UGT1A9 cells; refers to: 3-O-glucuronide; 0.625 µM aglycone loading, end of excretion).
For `CC1(C)CCC23COC4(C=CC5C6(C)CCC(O)C(C)(CO)C6CCC5(C)C4(C)CC2O)C3C1` (stereo not shown), “recovery apical to basolateral” read 103% (Caco-2 monolayer; Caco-2 bidirectional transport; 10 µM, 3 h, 37 °C).
